{"data": "Measured values of several laboratories", "note": "Compare with care: the assays were run in different laboratories. ± gives the spread as reported."}
{"Structure (SMILES)": "O=C(N/N=C/c1cc[n+](CC2CC2)c2ccccc12)c1cccc(C(=O)N/N=C/c2cc[n+](CC3CC3)c3ccccc23)n1", "tested on": "telomeric G4 DNA hybrid-2", "test": "FRET melting", "setting": "1 µM, DNA 0.2 µM, added: duplex DNA competitor 10 µM", "measurement": "ΔTm", "result": "28.2 ± 0.1 °C"}
{"Structure (SMILES)": "CC(=O)[O-].O.O.[O-]c1ccc(Br)cc1C=NCCN1CCOCC1.[Zn+2]", "test": "FRAP", "setting": "80 µM", "measurement": "ferric reducing power", "result": "14.7%"}
{"Structure (SMILES)": "C[n+]1cccc2cc(/C=N/NC(=O)N/N=C/c3ccc4c(ccc[n+]4C)c3)ccc21", "tested on": "telomeric G4 DNA hybrid-2", "test": "FRET melting", "setting": "1 µM, DNA 0.2 µM, added: duplex DNA competitor 10 µM", "measurement": "ΔTm", "result": "3.4 ± 0.2 °C"}
{"Structure (SMILES)": "c1ccc(-c2n[nH]cc2-c2ccnc3ccccc23)nc1", "tested on": "DUN1 (Candida albicans)", "test": "kinase binding, MIB/MS competition", "system": "Candida albicans lysate", "setting": "10 µM", "how to read": "baseline: DMSO", "measurement": "log2 fold change", "result": -0.07}
{"Structure (SMILES)": "Nc1ncc(-c2cc(-c3cnn(CC(F)(F)F)c3)ncc2F)nc1C(=O)NC1CNCC(F)C1 (stereo not shown)", "tested on": "SRMS", "test": "KINOMEscan", "setting": "1 µM", "how to read": "baseline: DMSO control", "measurement": "remaining binding", "result": "96%"}
{"Structure (SMILES)": "COC1CN([C@H]2CC[C@H]([C@@]3(C)Oc4c(Cl)cc(C(=O)NCc5c(SC)cc(C)[nH]c5=O)c(C)c4O3)CC2)C1", "test": "RNA-seq, refers to: FRMD6 mouse homolog", "system": "mouse, HT-1376 xenograft, whole blood", "setting": "dose not given", "how to read": "baseline: vehicle", "measurement": "log2 fold change", "result": 0.241}
{"Structure (SMILES)": "N=C(N)NCCC[C@@H]1NC(=O)[C@H](CCCNC(=N)N)NC(=O)[C@@H](CCCNC(=N)N)NC(=O)[C@@H](CCCNC(=N)N)NC(=O)[C@@H](C(c2ccccc2)c2ccccc2)NC(=O)[C@@H](Cc2c[nH]c3ccccc23)NC(=O)[C@@H](C(c2ccccc2)c2ccccc2)NC1=O", "tested on": "Aspergillus fumigatus", "test": "fungal growth", "measurement": "MIC", "result": "> 64 µg/mL"}
{"Structure (SMILES)": "CNS(=O)(=O)Nc1nccc(Cc2c(C)c3ccc(Oc4ncccc4F)cc3oc2=O)c1F", "tested on": "Hs766T", "test": "cell viability", "setting": "7 days", "measurement": "IC50", "result": "0.664 nM"}
{"Structure (SMILES)": "C=CC(=O)N1[C@@H](c2ccc3c(c2)OCO3)c2[nH]c3ccccc3c2C[C@H]1C(=O)N1CCN(C)CC1", "tested on": "human cyclin E1 wild type-3xFLAG:CDK2", "test": "co-IP with TMT proteomics, refers to: PRPF19", "setting": "concentration not given, Q9UMS4", "how to read": "baseline: wild type DMSO", "measurement": "relative co-enrichment", "result": "76%"}
{"Structure (SMILES)": "CN1CCCNC(=O)c2cccc(c2)C(=O)NCCCN(C)CCCNc2cccc3c2C(=O)c2cccc(c2C3=O)NCCC1", "tested on": "SAS", "test": "RNA-Seq, refers to: USP25 mRNA", "setting": "1 µM, 6 h", "how to read": "baseline: untreated cells", "measurement": "log2 fold change", "result": -1.15}
{"Structure (SMILES)": "O=C(O)C(Cc1c[nH]cn1)N1C(=O)c2ccc3c4ccc5c6c(ccc(c7ccc(c2c37)C1=O)c64)C(=O)N(CCN1CCCCC1)C5=O (stereo not shown)", "tested on": "telomerase", "test": "enzyme activity, inhibitor, TRAP", "system": "cell-free", "setting": "pH 7.4", "measurement": "IC50", "result": "3600 ± 200 nM"}
{"Structure (SMILES)": "C[n+]1ccc(/C=N/NC(=O)C(=O)N/N=C/c2cc[n+](C)cc2)cc1", "tested on": "telomeric G4 DNA hybrid-2", "test": "FRET melting", "setting": "1 µM, DNA 0.2 µM", "measurement": "ΔTm", "result": "1.1 ± 0.9 °C"}
{"Structure (SMILES)": "C=C(NC(=O)c1csc(-c2nc3c(cc2O)-c2nc(cs2)C(=O)NC(C(C)O)C(=O)NC(=C(C)OC)c2nc(cs2)C(=O)NC2c4nc(cs4)C(=O)NC(COC(=O)c4c5c6c(cccc6n4O)COC(=O)C(OC4CC(C)(O)C(N(C)C)C(C)O4)C2OC5)c2nc-3cs2)n1)C(N)=O (stereo not shown)", "tested on": "Staphylococcus aureus", "system": "ATCC 43300 MRSA", "setting": "1/2×MIC, 2 h exposure", "measurement": "post-antibiotic effect", "result": "0.75 ± 0.12 h"}
{"Structure (SMILES)": "COc1cc(O)ccc1CCC(c1ccc(O)cc1)c1cc2c(c(C)c1O)OC(c1ccc(O)cc1)CC2 (mixture of isomers)", "test": "refers to: 12-HEPE", "system": "human whole blood", "setting": "30 µM, added: A23187", "measurement": "amount", "result": "231 ± 65 pg/mL blood"}
{"Structure (SMILES)": "O=C(N/N=C/c1cc[n+](CC2CC2)c2ccccc12)c1cncc(C(=O)N/N=C/c2cc[n+](CC3CC3)c3ccccc23)n1", "tested on": "telomeric G4 DNA hybrid-2", "test": "FRET melting", "setting": "1 µM, DNA 0.2 µM", "measurement": "ΔTm", "result": "23.7 ± 0.2 °C"}
{"Structure (SMILES)": "CC(C)(C)c1cc(-c2ccc3cccnc3n2)nc(-c2ccc3cccnc3n2)c1.[Cl-].[Cl-].[Ru+2].c1cnc2c(c1)ccc1cccnc12", "tested on": "B16-F10", "test": "resazurin", "setting": "added: light 733 nm, 9 mW, 100 J/cm2", "measurement": "EC50", "result": "217000 ± 8000 nM"}
{"Structure (SMILES)": "O=C(N/N=C/c1ccc(C[n+]2ccccc2)cc1)c1cncc(C(=O)N/N=C/c2ccc(C[n+]3ccccc3)cc2)n1", "tested on": "telomeric G4 DNA hybrid-2", "test": "FRET melting", "setting": "1 µM, DNA 0.2 µM", "measurement": "ΔTm", "result": "13.7 ± 1.1 °C"}
{"Structure (SMILES)": "C=CC(=O)Nc1cccc(Cn2ncc3cnc(Nc4cnn(CCOC)c4)nc32)c1", "tested on": "TGFBR2 human", "test": "binding, KINOMEscan", "setting": "100 nM", "how to read": "lower = stronger binding", "measurement": "percent of control", "result": "100%"}
{"Structure (SMILES)": "O=C(N/N=C/c1cc[n+](CC2CC2)c2ccccc12)c1ccc2ccc3ccc(C(=O)N/N=C/c4cc[n+](CC5CC5)c5ccccc45)nc3c2n1", "tested on": "telomeric G4 DNA hybrid-2", "test": "FRET melting", "setting": "1 µM, DNA 0.2 µM", "measurement": "ΔTm", "result": "29.1 ± 0.7 °C"}
{"Structure (SMILES)": "Cc1ncsc1-c1ccc(C(C)NC(=O)C2CC(O)CN2C(=O)C(NC(=O)CCCCCCCCCCN2CCCC(Nc3ncc(Cl)c(Nc4ccccc4S(=O)(=O)C(C)C)n3)C2)C(C)(C)C)cc1 (stereo not shown)", "tested on": "22Rv1", "test": "RNA-seq, refers to: SLFN5 mRNA", "setting": "concentration not given", "how to read": "baseline: DMSO", "measurement": "log2 fold change", "result": -2.12}
{"Structure (SMILES)": "CC[n+]1cccc2cc(/C=N/NC(=O)c3cc(C(=O)N/N=C/c4ccc5c(ccc[n+]5CC)c4)ncn3)ccc21", "tested on": "telomeric G4 DNA hybrid-2", "test": "FRET melting", "setting": "1 µM, DNA 0.2 µM", "measurement": "ΔTm", "result": "6.2 ± 0.5 °C"}
{"Structure (SMILES)": "CC(C)c1ccc(N(C)c2ccc3c(c2)OCC[C@H]3CNc2cnccc2C(=O)O)cc1", "tested on": "SCaBER", "test": "cell viability, CellTiter-Glo", "setting": "7 days", "measurement": "IC50", "result": "15.2 nM"}
{"note": "A few entries again:"}
{"Structure (SMILES)": "C=CC(=O)Nc1cccc(Cn2ncc3cnc(Nc4cnn(CCOC)c4)nc32)c1", "tested on": "TGFBR2 human", "test": "binding, KINOMEscan", "setting": "100 nM", "how to read": "lower = stronger binding", "measurement": "percent of control", "result": "100%"}
{"Structure (SMILES)": "O=C(N/N=C/c1cc[n+](CC2CC2)c2ccccc12)c1ccc2ccc3ccc(C(=O)N/N=C/c4cc[n+](CC5CC5)c5ccccc45)nc3c2n1", "tested on": "telomeric G4 DNA hybrid-2", "test": "FRET melting", "setting": "1 µM, DNA 0.2 µM", "measurement": "ΔTm", "result": "29.1 ± 0.7 °C"}
{"Structure (SMILES)": "Cc1ncsc1-c1ccc(C(C)NC(=O)C2CC(O)CN2C(=O)C(NC(=O)CCCCCCCCCCN2CCCC(Nc3ncc(Cl)c(Nc4ccccc4S(=O)(=O)C(C)C)n3)C2)C(C)(C)C)cc1 (stereo not shown)", "tested on": "22Rv1", "test": "RNA-seq, refers to: SLFN5 mRNA", "setting": "concentration not given", "how to read": "baseline: DMSO", "measurement": "log2 fold change", "result": -2.12}
